Results gathered from unrelated publications.
Each line is one published result; not all experiments were run side by side. Numbers after ± are the reported error.

| Structure (SMILES) | test | system | conditions | how to read | measurement | value |
| --- | --- | --- | --- | --- | --- | --- |
| CNC(=O)c1ccc(-c2cnc3ncc(Cc4ccc5ncccc5c4)n3n2)cc1F | CTCAE v4.0, any causality | human cancer patients | oral, dose not given, dose escalation |  | non-cardiac chest pain incidence (all grades) | 11% |
| O=C(O)c1cccc2ccccc12 | haemolysis | sheep erythrocytes | 1 h, pH 7.5 |  | HC50 | > 128 µg/mL |
| CC(C)(C(=O)N1CCOc2c(C#N)cncc2C1)C(F)F | item: Cardiac disorders | human | oral, 15 mg twice daily, 14 days, multiple ascending dose |  | subjects with adverse event | 0% |
| C[C@H]1Oc2cc(cnc2N)-c2c(nn(C)c2C#N)CN(C)C(=O)c2ccc(F)cc21 |  | human patients, plasma | oral, cycle 2 day 1, median, with: avelumab |  | Cmax, dose-normalized | 6 ng/mL/mg |
| CC(=O)Nc1c(C)cc(NS(=O)(=O)c2cc(Cl)cc(Cl)c2O)cc1C | colloidal aggregate formation, dynamic light scattering | 50 mM potassium phosphate buffer | 200 µM, pH 7.0, 1% DMSO | higher = more aggregation | DLS scattered light intensity | 531000 counts/s |
| Cc1c(C(=O)O)ccc2c3n(nc12)[C@@H]1[C@H](C3)N(CC2CC2)[C@@]2(C(=O)Nc3cc(Cl)ccc32)[C@H]1c1cccc(Cl)c1F | phase Ia trial, item: Nausea | cancer patients | oral, dose not given, all patients grade ≥3 |  | adverse event incidence | 7.4% |
| Nc1ncnc2c1ncn2[C@H]1C[C@@H]2OP(=O)(O)OC[C@H]3O[C@@H](n4cnc5c(N)ncnc54)C[C@@H]3OP(=O)(O)OC[C@H]2O1 |  | non-tumor-bearing mice, serum | intravenous, 1 mg/kg, toxicity study |  | BUN | 8.77 ± 0.74 mmol/L |
| CCCCC1=NC2(CCCC2)C(=O)N1Cc1ccc(-c2ccccc2S(=O)(=O)Nc2noc(C)c2C)c(COCC)c1 |  | healthy adult volunteers, plasma | oral, 50 mg, 14 days repeated dosing, fasted, crushed tablet |  | Cmax | 1510 ng/mL |
| Cc1cc2c(cc1CCNS(=O)(=O)c1ccsc1C(=O)O)CCCC2 | colloidal aggregate formation, dynamic light scattering | 50 mM potassium phosphate buffer | 200 µM, pH 7.0, 1% DMSO | higher = more aggregation | DLS scattered light intensity | 411000 counts/s |
| CC[C@H](C)[C@H](NC(=O)[C@H](Cc1ccccc1)NC(=O)[C@H](CCC(=O)O)NC(=O)[C@H](CCCCNC(=O)COCCOCCNC(=O)COCCOCCNC(=O)CC[C@H](NC(=O)CCCCCCCCCCCCCCCCC(=O)O)C(=O)O)NC(=O)[C@H](C)NC(=O)[C@H](C)NC(=O)[C@H](CCC(N)=O)NC(=O)CNC(=O)[C@H](CCC(=O)O)NC(=O)[C@H](CC(C)C)NC(=O)[C@H](Cc1ccc(O)cc1)NC(=O)[C@H](CO)NC(=O)[C@H](CO)NC(=O)[C@@H](NC(=O)[C@H](CC(=O)O)NC(=O)[C@H](CO)NC(=O)[C@@H](NC(=O)[C@H](Cc1ccccc1)NC(=O)[C@@H](NC(=O)CNC(=O)[C@H](CCC(=O)O)NC(=O)C(C)(C)NC(=O)[C@@H](N)Cc1cnc[nH]1)[C@@H](C)O)[C@@H](C)O)C(C)C)C(=O)N[C@@H](C)C(=O)N[C@@H](Cc1c[nH]c2ccccc12)C(=O)N[C@@H](CC(C)C)C(=O)N[C@H](C(=O)N[C@@H](CCCNC(=N)N)C(=O)NCC(=O)N[C@@H](CCCNC(=N)N)C(=O)NCC(=O)O)C(C)C | QT interval corrected for heart rate, 12-lead Holter ECG | healthy human subjects | subcutaneous, 1.5 mg once weekly, 18 h post-dose, steady state | relative to: placebo, time-matched baseline | placebo-subtracted change in QTcI | -6.1 ms |
| CCN1/C(=C/C(C)=O)Sc2ccc(F)cc21 |  | cynomolgus monkey | oral, 100 mg/kg, 4 h post-dose | relative to: pre-dose | QTc interval change | 99.3 ± 3.2% |
| O=C(O)CCC(=O)O.[2H]C([2H])([2H])Oc1cc(C)c2[nH]ccc2c1CN1CC[C@@H](C2CC2)C[C@H]1c1ccc(C(=O)O)cc1 | multiple ascending dose | healthy Chinese subjects | 50 mg twice daily |  | subjects with TEAE Diarrhea | 0% |
| CCCC1CCC(c2ccc(OCC)c(F)c2F)CC1 (stereo not shown) | item: compound | human pregnant women, female fetuses, maternal serum | dose not given, paired maternal-cord samples, mean |  | concentration | 0.9 ng/mL |
| COc1ncc(-c2nc3c(n2C(C)C)[C@H](c2ccc(Cl)cc2)N(c2cc(Cl)cn(C)c2=O)C3=O)c(OC)n1 | LC-MS/MS, noncompartmental | human, plasma | oral, 120 mg, cycle 2 day 1, high-dose, geometric mean |  | AUC(0-last) | 11900 ng·h/mL |
| Cc1cc(C)cc(NC(=O)CN(C)S(=O)(=O)c2ccc3[nH]c4c(c3c2)CCCC4)c1 | haemolysis | sheep erythrocytes | 1 h, pH 7.5 |  | HC50 | > 128 µg/mL |
| C[C@@H](N)C1CCN(S(=O)(=O)c2cccc3cnccc23)CC1 |  | healthy volunteers | 250 mg, 2 h, standing | relative to: baseline | diastolic blood pressure reduction | -19.7 mmHg |
| CC[C@H](C)[C@@H]1NC(=O)[C@@](C)(NC(=O)[C@H](CCCNC(=N)N)NC(=O)[C@H](CC(C)C)NC(=O)[C@@H](NC(=O)[C@H](CCC(N)=O)NC(=O)[C@H](CC(C)C)NC(C)=O)[C@@H](C)O)CCCC=CCCC[C@@](C)(C(=O)N[C@@H](CC(C)C)C(=O)N[C@@H](Cc2ccc3ccccc3c2)C(N)=O)NC(=O)[C@H](CCCNC(=N)N)NC(=O)[C@H](CCC(N)=O)NC1=O |  | BALB/c mouse | intravenous, 5 mg/kg |  | Vss | 0.0693 L/kg |
| CCn1nnc(Br)c1CNS(=O)(=O)c1cccc(Cl)c1O | colloidal aggregate formation, dynamic light scattering | 50 mM potassium phosphate buffer | 200 µM, pH 7.0, 1% DMSO | higher = more aggregation | DLS scattered light intensity | 996000 counts/s |
| CN[C@@H]1COc2c(S(=O)(=O)NC(=O)Nc3c4c(cc5c3CCC5)CCC4)cnn2C1 |  | human, urine | oral, 450 mg, 0-48 h |  | fraction excreted in urine | 0.18 |

| Structure (SMILES) | test | system | conditions | how to read | measurement | value |
| --- | --- | --- | --- | --- | --- | --- |
| CC(C)[C@H](N)C(=O)NCCCS(=O)(=O)O |  | human both sexes, plasma | oral, 256.5 mg once daily days 8-14, day 14, fasted capsule |  | AUC(0-12) | 7870 ng·h/mL |
| O=C(Nc1nc2cccc(-c3ccc(CN4CCS(=O)(=O)CC4)cc3)n2n1)C1CC1 | item: non-infective cystitis | rheumatoid arthritis patients | oral, 300 mg once daily, 4 weeks, any relatedness |  | treatment-emergent adverse events | 5% |
| Cc1cc(-c2nccc3c2ccn3CC(=O)Nc2ccc(-c3cnccn3)cn2)ccn1 |  | human | 5 mg once daily, multiple ascending dose |  | subjects with Photophobia adverse event | 0% |
| O=c1[nH]c(=O)n([C@@H]2O[C@H](CO)[C@@H](O)[C@@H]2F)cc1CCC[18F] |  | nude mice, RG2 tumour, blood | intravenous, dose not given, 2 h, co-injection |  | blood concentration | 0.15 ± 0.08 %ID/g |
| CCOc1c([C@H](C)n2nc(C)c3c(N)ncnc32)cc(Cl)c(F)c1[C@@H]1CNC(=O)C1 | item: QRS ≤100 ms | previously treated B-cell malignancy | oral, 45 mg once daily, baseline below thresholds |  | ECG observations | 100% |
| COc1ccc2c(=O)n(C)c(-c3ccccc3)nc2c1 |  | male Sprague-Dawley rat, large intestine | oral, 30 mg/kg, 0.5 h |  | tissue concentration | 375 ng/g |
| O=C(Nc1cnccc1Cl)N1CCN(Cc2ccc3c(c2)OC(F)(F)O3)CC1 | multiple ascending dose | young men | 25 mg, treatment-emergent adverse events |  | alanine aminotransferase increased | 0% |
| CC(=O)NC[C@H]1CN(c2ccc(N3CCOCC3)c(F)c2)C(=O)O1 |  | human whole blood | concentration not given, 24 h, 4 °C |  | deviation from nominal concentration | 0.9% |
| CC(C)C[C@H](NC(=O)CNC(=O)c1cc(Cl)ccc1Cl)B(O)O | item: Hypokalaemia | human newly diagnosed multiple myeloma | oral, dose not given, maintenance, grade 3, onset cycle 17 or later |  | treatment-emergent adverse events | 0% |
| COc1ccnc(C(=O)NC(CO)C(=O)O)c1O (racemic) | soil adsorption | soil | pH 6.9, organic carbon 0.8 % |  | Freundlich coefficient KF | 5.9 mL/g |
| Cc1ccc(NS(=O)(=O)c2ccc(F)cc2O)cc1N1CCOC1=O | colloidal aggregate formation, dynamic light scattering | 50 mM potassium phosphate buffer | 200 µM, pH 7.0, 1% DMSO | higher = more aggregation | DLS scattered light intensity | 787000 counts/s |
| Cc1ccc([C@@H]2O[C@H](CO)[C@@H](O)[C@H](O)[C@H]2O)cc1Cc1ccc(-c2ccc(F)cc2)s1 |  | Japanese type 2 diabetes patients | 25 mg, day 6, 24 h urine collection | relative to: baseline | urinary potassium excretion change | -4.75 mEq |
| CCn1cc(C(=O)N2CCOCC2)c(=O)c2cc(NC3Cc4ccccc4C3)cnc21 |  | human, fed | oral suspension, 600 mg/day twice daily, day 1, arithmetic mean |  | AUC(0-12) | 7160 ng·h/mL |
| CCO[C@H]1CCN(Cc2c(OC)cc(C)c3[nH]ccc23)[C@H](c2ccc(C(=O)O)cc2)C1 |  | human severe hepatic impairment, plasma | oral, 200 mg single dose, geometric mean |  | total Cmax | 3260 ng/mL |
| COc1ccc(Cl)cc1C(=O)NCCc1ccc(S(=O)(=O)NC(=O)NC2CCCCC2)cc1 [carbon-11 labelled] | population PK model | humans | fixed pancreas and spleen ratios |  | liver to blood rate constant | 30 h⁻¹ |
| CNCCOC12CC3(C)CC(C)(CC(Cn4ncc(-c5ccc(N6CCc7cccc(C(=O)Nc8nc9ccccc9s8)c7C6)nc5C(=O)O)c4C)(C3)C1)C2 |  | beagle dog, male, anaesthetised | intravenous bolus, 0.03 mg/kg, 10 min | relative to: baseline | PR interval change | -6 ms |
| O=C(/C=C/CCc1ccc(O)cc1)/C=C/c1ccc(O)cc1 |  | nude mouse MCF7 xenograft | 20 mg/kg, day 2 |  | body weight | 20.6 ± 0.92 g |
| CNCc1ccc(-c2[nH]c3cc(F)cc4c3c2CCNC4=O)cc1 |  | human patients | oral, 600 mg twice daily, grade 3 |  | incidence of headache | 0% |
